Assay results pooled from the literature.
Each numbered part is a random draw from the data of one study; scales do not carry over between parts. Changes are numbered by the printed parent chain.

Study 1 — technique: protein-binding microarray; form: double-stranded DNA, one strand shown; medium: in vitro; concentration: 940 nM top; notes: 60-bp whole probe; together with: salmon DNA 0.4 mg/ml; relative to: random background probes; reading: higher = stronger binding; all sequences stand within: GCCTAGCAC … GTCTTGATTCGCTTGACGCTGCTG
Target: Interferon regulatory factor 5, full length, phosphomimetic (IRF5, Homo sapiens, UniProt Q13568-2, residues 1-514, S451D/S453D/S456D/S462D)
Sequence	fitted relative affinity [z-score]
TTAGATATGAGTTTCGATTAGTGCTAG	6.94
CTCTTGATCCCGAACTGGCCGTGCTAG	0.0455
TCAATTTTGCTTCTAGAACTGTGCTAG	-0.104
TTAGAACTGGGGAATCGATTAGTGCTA	0.206
GACGGTCTCGGTCTCGGCACGTGCTAG	4.22
TTAGGACTGGACTAACGGTTAGTGCTA	-0.594
TCAACTTTGGAGATGACACTGTGCTAG	-0.189
GACGGTATCGACTATCGGGCCGTGCTA	4.6
TCAGTTTCTGATATGGTACTGTGCTAG	3.75
CTAGAACTGGGGTATCGATTAGTGCTA	2.99
GACGATATCAGGTTCGAGACGTGCTAG	-0.267
TACGAACTGGGGTTTCGAGACGTGCTA	1.92
GACGGACTGGGTTTTCGGGACGTGCTA	0.253
GACGGACTGGGGAATCGGGACGTGCTA	-0.293
TTAGGTTTCGGTTTTGGTTAGTGCTAG	15.1
TTAGGTTTCGTGACTGGGTTAGTGCTA	4.3
GACGAACTGGGGTTTCGAGATGTGCTA	1.93
CTAGATTTCAGTCTCGATTAGTGCTAG	4.05
TTAGGCTCCCTTTTCCTTTAGTGCTAG	0.251

Study 2 — target: CCNE1, cyclin fold, Cln2 fusion (human); technique: yeast growth competition, sequencing; medium: yeast; notes: weak parent motif; relative to: not given; reading: higher = stronger binding
Starting sequence: RB1 docking peptide (human); PKPLKKLRFDIEG
Variant	normalised enrichment score
PKPLKKKRFDIEG [L7K]	0.925
PKPLKKLRFDIEM [G13M]	-0.203
PRPLKKLRFDIEG [K2R]	0.862
PKPLKTLRFDIEG [K6T]	0.538
PKPLKKNRFDIEG [L7N]	0.0196
PKPLKKWRFDIEG [L7W]	0.773
PKPLEKLRFDIEG [K5E]	0.533
PKPLKKLVFDIEG [R8V]	0.546
AKPLKKLRFDIEG [P1A]	0.271
PKILKKLRFDIEG [P3I]	0.44
PKPLKKPRFDIEG [L7P]	1.21
PKPLKKLRFDIPG [E12P]	0.452
PKPYKKLRFDIEG [L4Y]	0.679
PKPLKKLRFDREG [I11R]	-0.985
PKPLKKLRFDTEG [I11T]	-0.914
PKPLKKYRFDIEG [L7Y]	-0.235
PKPHKKLRFDIEG [L4H]	-0.24
PKNLKKLRFDIEG [P3N]	-0.282
PKPLPKLRFDIEG [K5P]	-0.577
PKPLKKLRPDIEG [F9P]	-0.194
PKVLKKLRFDIEG [P3V]	0.0568

Study 3 — technique: RNAcompete; form: RNA; medium: in vitro; concentration: 20 nM; notes: 7-mer, probes averaged, single round; relative to: mean of 7-mers; reading: higher = stronger binding
Target: PABPC1L2, full length, GST fusion (mouse, UniProt A0ABA7IW68)
Construct (chain): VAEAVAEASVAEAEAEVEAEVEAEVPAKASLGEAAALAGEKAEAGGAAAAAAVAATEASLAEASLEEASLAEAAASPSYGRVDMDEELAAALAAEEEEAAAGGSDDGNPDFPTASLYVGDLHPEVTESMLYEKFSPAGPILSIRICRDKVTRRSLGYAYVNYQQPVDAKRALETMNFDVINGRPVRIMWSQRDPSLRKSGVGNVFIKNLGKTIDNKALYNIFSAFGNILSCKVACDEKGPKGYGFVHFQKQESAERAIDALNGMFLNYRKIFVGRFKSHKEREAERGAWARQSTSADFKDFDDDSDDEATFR
Sequence	7-mer Z-score
UCCUCGA	-0.342
CCUAAUG	-0.289
GGAGUGU	-0.0573
CACGUGC	-0.104
GCGCCCU	-0.237
CGAGGCA	0.0768
AAUUGCC	0.225
UUCAAGC	-0.135
ACGUGUC	-0.144
AGAAGUG	-0.0355
CUCCUUG	-0.434
CGGGUAA	0.392
GAAAGGU	0.0932

Study 4 — technique: protein binding microarray; form: double-stranded DNA, one strand shown; medium: in vitro; concentration: not given; relative to: not given; reading: higher = stronger binding
Target: Histone acetyltransferase KAT6A, winged helix 1, GST fusion (KAT6A, Homo sapiens, UniProt Q92794, residues 1-85)
Notes: 8-mer, flanks averaged, mean of 2 arrays, mostly near background
Construct (chain): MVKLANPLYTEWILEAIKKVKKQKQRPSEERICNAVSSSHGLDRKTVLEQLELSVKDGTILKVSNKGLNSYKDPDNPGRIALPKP
Sequence	E-score
AGACCCAA	-0.142
CGTGTACC	0.0724
AGAAGGTA	-0.182
CCATCGCA	-0.0162
ACGTTGAC	-0.14
AGGCCGCC	0.336
CGCGTCGA	0.3
CGAAGAGA	-0.117
GCACAGCA	-0.0282
TGTTAAAA	-0.165
AGTTGAAA	-0.118
GGTTAACA	0.0371
GTCAAAAC	0.107
ATATACTG	-0.0613
ACTACACA	-0.0825
AAATTACT	-0.122
GTTTCCAA	-0.303
CAGTCAGG	-0.159
AGCCTCGA	-0.168
GATGCACC	-0.0199
ATCAGAAG	-0.019
ACCGGCAA	0.276
AACCGATC	0.0575
TACTGTGA	-0.197
ACCTCAAC	-0.166

Repeated from above (study 4):
Sequence	E-score
AAATTACT	-0.122
GTTTCCAA	-0.303
CAGTCAGG	-0.159
AGCCTCGA	-0.168
GATGCACC	-0.0199
ATCAGAAG	-0.019
ACCGGCAA	0.276
AACCGATC	0.0575
TACTGTGA	-0.197
